# Measured values gathered from unrelated publications.
# Protocols differ between the studies behind these lines. Numbers after ± are the reported error.
SMILES,assay,test system,conditions,tissue uptake
CC(C)C[C@@H](NC(=O)[C@@H](CCCNC(=N)N)NC(=O)[C@@H](Cc1c[nH]cn1)NC(=O)[C@@H](Cc1c[nH]c2ccccc12)NC(=O)[C@@H](Cc1c[nH]cn1)NC(=O)[C@@H](Cc1ccccc1)NC(=O)[C@H](NC(=O)[C@@H](Cc1ccc(O)cc1)NC(=O)CNC(=O)CNC(=O)CCOCCOCCOCCNC(=O)CN1CCN(CC(=O)O)CCN(CC(=O)O)CC1)[C@H](C)O)C(=O)N[C@H](CC(N)=O)C(=O)N1CCC[C@@H]1C(=O)O [gallium-68 labelled],gamma counting,"C57BL/6 mice, male, brain","intravenous, 1.85 MBq, 60 min",0.42 ± 0.05 %ID/g
CC[C@H](C)[C@H](NC(=O)[C@H](CCCNC(=N)N)NC(=O)[C@H](CCCCN)NC(=O)[C@H](Cc1ccc(O)cc1)NC(=O)[C@H](CC(=O)O)NC(=O)[C@H](C)NC(=O)CNC(=O)CCOCCOCCOCCNC(=O)CN1CCN(CC(=O)O)CCN(CC(=O)O)CCN(CC(=O)O)CC1)C(=O)N[C@H](C(=O)N[C@H](C(=O)N[C@@H](CCCCN)C(=O)N[C@H](C(=O)N[C@@H](CC(N)=O)C(N)=O)C(C)C)C(C)C)[C@@H](C)O [copper-64 labelled],ex vivo gamma counting,"C57BL/6J male mice, B16-F10 tumour, muscle","intravenous, 1.85 MBq, 100 min",0.197 ± 0.008 %ID/g
CC[C@H](C)[C@H](NC(=O)[C@H](CCCCN)NC(=O)CNC(=O)[C@H](CC(C)C)NC(=O)[C@H](Cc1ccccc1)NC(=O)[C@H](CCCCN)NC(=O)[C@H](CO)NC(=O)[C@H](Cc1ccccc1)NC(=O)[C@H](Cc1c[nH]c2ccccc12)NC(=O)[C@H](CCC(N)=O)NC(=O)[C@@H](NC(=O)[C@H](Cc1ccccc1)NC(=O)CCCCCNC(=O)CN1CCN(CC(=O)O)CCN(CC(=O)O)CCN(CC(=O)O)CC1)C(C)C)C(=O)N[C@@H](CCC(=O)O)C(=O)N1CCC[C@H]1C(=O)N[C@H](CC(=O)O)C(=O)N[C@H](C(=O)N[C@@H](CO)C(=O)N[C@@H](CCC(N)=O)C(=O)N[C@H](C(=O)N[C@@H](CCC(N)=O)C(=O)N[C@@H](CC(=O)O)C(=O)N1CCC[C@H]1C(=O)N[C@@H](CC(N)=O)C(=O)N[C@@H](CC(=O)O)C(=O)N[C@@H](CCC(N)=O)C(=O)N[C@@H](Cc1ccc(O)cc1)C(=O)N[C@@H](CCC(=O)O)C(=O)N1CCC[C@H]1C(=O)N[C@@H](Cc1ccccc1)C(=O)O)C(C)C)C(C)C [copper-64 labelled],,"C57BL/6 mice, male, MC-38 tumour-bearing, blood","2 h, vehicle-treated",1.21 ± 0.09 %ID/g
[2H]C([2H])([18F])[C@]([2H])(N)C(=O)O,PET,"athymic nude mice, U-87 MG, tumor","dose not given, 20 min post-injection",2.49 ± 0.36 %ID/cc
CCCC[C@H]1C(=O)N(C)[C@@H](CCCC)C(=O)N[C@@H](CCCNC(=O)CN2CCN(CC(=O)O)CCN(CC(=O)O)CCN(CC(=O)O)CC2)C(=O)N[C@H](C(=O)NCC(N)=O)CSCC(=O)N[C@@H](Cc2ccc(O)cc2)C(=O)N(C)[C@@H](C)C(=O)N[C@@H](CC(N)=O)C(=O)N2CCC[C@H]2C(=O)N[C@@H](Cc2c[nH]cn2)C(=O)N[C@@H](CC(C)C)C(=O)N(C)CC(=O)N[C@@H](Cc2c[nH]c3ccccc23)C(=O)N[C@@H](CO)C(=O)N[C@@H](Cc2c[nH]c3ccccc23)C(=O)N1C [gallium-68 labelled],,"NOD/SCID mice, CHO-hPD-L1 xenograft, muscle","60 min, atezolizumab 10 mg/kg pretreatment",1.09 ± 0.11 %ID/g
C[C@H](O)[C@@H](NC(=O)[C@H]1CCCN1C(=O)[C@@H](CCCCN)NC(=O)[C@@H](CO)NC(=O)[C@@H](Cc1ccc(O)cc1)NC(=O)[C@@H](CC(N)=O)NC(=O)CCOCCOCCOCCNC(=O)CN1CCN(CC(=O)O)CCN(CC(=O)O)CCN(CC(=O)O)CC1)C(=O)N[C@H](CC(=O)O)C(=O)N[C@H](CCCNC(=N)N)C(=O)N[C@H](CCC(N)=O)C(=O)N[C@H](Cc1ccc(O)cc1)C(=O)N[C@H](Cc1c[nH]cn1)C(=O)N[C@H](Cc1ccccc1)C(N)=O [gallium-68 labelled],,"BALB/c nude mice U-87 MG tumour, heart","intravenous, 1.85 MBq, 2 h, radiolabelled",0.05 ± 0.02 %ID/g
CC[C@H](C)[C@H](NC(=O)[C@H](CCCNC(=N)N)NC(=O)[C@H](CCCCN)NC(=O)[C@H](Cc1ccc(O)cc1)NC(=O)[C@H](CC(=O)O)NC(=O)[C@H](C)NC(=O)CNC(=O)CCOCCOCCOCCNC(=O)CN1CCN(CC(=O)O)CCN(CC(=O)O)CCN(CC(=O)O)CC1)C(=O)N[C@H](C(=O)N[C@@H](CC(C)C)C(=O)N[C@@H](CCCCN)C(=O)N[C@H](C(=O)N[C@@H](CC(N)=O)C(N)=O)C(C)C)[C@@H](C)O [copper-64 labelled],ex vivo gamma counting,"C57BL/6J male mice, B16-F10 tumour, muscle","intravenous, 1.85 MBq, 100 min",0.423 ± 0.245 %ID/g
CSCC[C@H](NC(=O)CNC(=O)[C@H](CCCCN)NC(=O)[C@H](CC(C)C)NC(=O)[C@@H]1CCCN1C(=O)[C@H](CO)NC(=O)[C@H](Cc1c[nH]cn1)NC(=O)[C@H](Cc1c[nH]c2ccccc12)NC(=O)[C@H](CCCNC(=N)N)NC(=O)[C@H](CC(C)C)NC(=O)[C@H](CCCNC(=N)N)NC(=O)[C@H](Cc1c[nH]c2ccccc12)NC(=O)[C@H](CS)NC(=O)CCCCCNC(=O)CN1CCN(CC(=O)O)CCN(CC(=O)O)CCN(CC(=O)O)CC1)C(=O)O [copper-64 labelled],ex vivo biodistribution,"BALB/c nude mice, bone","intravenous, dose not given, 1 h, Huh-7 tumour-bearing",1.17 %ID/g

# Excerpt of the above:
SMILES,assay,test system,conditions,tissue uptake
CC[C@H](C)[C@H](NC(=O)[C@H](CCCNC(=N)N)NC(=O)[C@H](CCCCN)NC(=O)[C@H](Cc1ccc(O)cc1)NC(=O)[C@H](CC(=O)O)NC(=O)[C@H](C)NC(=O)CNC(=O)CCOCCOCCOCCNC(=O)CN1CCN(CC(=O)O)CCN(CC(=O)O)CCN(CC(=O)O)CC1)C(=O)N[C@H](C(=O)N[C@H](C(=O)N[C@@H](CCCCN)C(=O)N[C@H](C(=O)N[C@@H](CC(N)=O)C(N)=O)C(C)C)C(C)C)[C@@H](C)O [copper-64 labelled],ex vivo gamma counting,"C57BL/6J male mice, B16-F10 tumour, muscle","intravenous, 1.85 MBq, 100 min",0.197 ± 0.008 %ID/g
